Measurements from different studies.
Each numbered part is a random draw from the data of one study; scales do not carry over between parts.

Block 1 — method: protein-binding microarray; molecule type: double-stranded DNA, one strand shown; matrix: in vitro; concentration: 2540 nM top; setting: 60-bp whole probe; with: salmon DNA 0.4 mg/ml; relative to: random background probes; direction: higher = stronger binding; quantity: fitted relative affinity; all sequences stand within: GCCTAGCAC … GTCTTGATTCGCTTGACGCTGCTG
Target: Interferon regulatory factor 3, full length, phosphomimetic (IRF3, Homo sapiens, UniProt Q14653, residues 1-427, S386D/S396D/S398D/S402D/T404D/S405D)
Target sequence (chain): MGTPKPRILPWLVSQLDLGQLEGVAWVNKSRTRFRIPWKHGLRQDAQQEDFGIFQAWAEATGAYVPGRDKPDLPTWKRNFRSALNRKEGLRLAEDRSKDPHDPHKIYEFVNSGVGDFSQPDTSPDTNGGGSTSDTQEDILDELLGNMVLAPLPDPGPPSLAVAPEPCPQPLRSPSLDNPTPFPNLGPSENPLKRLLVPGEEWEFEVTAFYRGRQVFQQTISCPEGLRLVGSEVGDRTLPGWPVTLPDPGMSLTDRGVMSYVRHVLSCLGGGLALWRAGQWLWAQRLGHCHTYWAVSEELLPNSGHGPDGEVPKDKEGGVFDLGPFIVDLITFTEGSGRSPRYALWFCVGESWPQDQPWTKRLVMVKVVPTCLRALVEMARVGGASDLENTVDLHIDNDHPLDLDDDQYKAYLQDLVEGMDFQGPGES
TTAGTACTGGGGTATCGATTAGTGCTA: -0.389 z-score
GACGGACTGGGGTTTCGGGTCGTGCTA: 0.871 z-score
TTAGATTTCAGTTTCGATTCGTGCTAG: 7.51 z-score
GACGGTCTCGGACTGGGGACGTGCTAG: -0.00566 z-score
TACGGTTTCCTTCTCCTGACGTGCTAG: 9.39 z-score
TCTAGCCTCCATTTTTACCCGTGCTAG: -0.243 z-score
TTAGGTATCCTTCTCCTTCAGTGCTAG: 7.2 z-score
GACGGTCTCCTTCTCCCGACGTGCTAG: 4.39 z-score

Block 2 — method: universal PBM; molecule type: double-stranded DNA, one strand shown; matrix: in vitro; concentration: 600 nM; direction: higher = stronger binding; quantity: E-score
Target: Sal-like protein 4, full length isoform A (SALL4, Homo sapiens, UniProt Q9UJQ4, residues 1-1053)
UniProt Q9UJQ4, sequence (whole entry, looked up): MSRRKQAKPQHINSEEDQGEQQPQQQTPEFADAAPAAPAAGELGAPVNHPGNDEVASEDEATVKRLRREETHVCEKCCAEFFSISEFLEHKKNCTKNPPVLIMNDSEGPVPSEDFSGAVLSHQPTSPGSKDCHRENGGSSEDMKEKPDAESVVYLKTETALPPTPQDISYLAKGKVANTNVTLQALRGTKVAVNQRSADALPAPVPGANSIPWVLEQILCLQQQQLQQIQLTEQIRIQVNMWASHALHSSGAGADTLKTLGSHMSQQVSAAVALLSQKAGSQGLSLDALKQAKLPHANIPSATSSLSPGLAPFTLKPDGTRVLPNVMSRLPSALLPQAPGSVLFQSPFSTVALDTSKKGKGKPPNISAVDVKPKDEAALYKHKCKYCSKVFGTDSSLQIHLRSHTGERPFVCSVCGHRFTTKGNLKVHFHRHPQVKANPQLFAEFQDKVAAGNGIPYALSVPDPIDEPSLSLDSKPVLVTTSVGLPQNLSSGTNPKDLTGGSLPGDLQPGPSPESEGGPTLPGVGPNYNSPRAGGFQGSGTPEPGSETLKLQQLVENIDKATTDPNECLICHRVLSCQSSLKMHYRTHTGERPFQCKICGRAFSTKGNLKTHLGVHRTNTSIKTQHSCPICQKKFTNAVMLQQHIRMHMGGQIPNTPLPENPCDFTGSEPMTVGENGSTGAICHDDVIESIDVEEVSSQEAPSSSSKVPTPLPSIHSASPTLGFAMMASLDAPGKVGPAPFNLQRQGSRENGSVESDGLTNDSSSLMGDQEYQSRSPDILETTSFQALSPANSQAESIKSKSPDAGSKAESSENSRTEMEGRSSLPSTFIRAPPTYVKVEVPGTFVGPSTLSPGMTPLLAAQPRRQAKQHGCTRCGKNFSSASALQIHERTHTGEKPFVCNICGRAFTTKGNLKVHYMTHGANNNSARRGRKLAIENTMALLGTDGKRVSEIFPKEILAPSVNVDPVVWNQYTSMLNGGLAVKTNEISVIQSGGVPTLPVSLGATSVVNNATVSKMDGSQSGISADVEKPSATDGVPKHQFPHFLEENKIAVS
Setting: 8-mer, flanks averaged, mean of replicates
GCTTGGAA: -0.103
ACTCTACA: -0.0605
GTGCAAAC: -0.0714
GCGCCTCC: -0.23
CAAAAACG: 0.096
CGGACTTA: -0.0272
ATTTGATC: 0.0438
CAGCTCAC: -0.16

Block 3 — action: inhibitor; concentration: 20 µM; quantity: inhibition
Target: Replicase polyprotein 1ab, nsp13 helicase (rep, Severe acute respiratory syndrome coronavirus 2, UniProt P0DTD1)
OCCNCCCOc1cccc(Cl)c1Cl: 3.34%
CCN(CC)CCNc1ccc(CO)c2sc3ccccc3c(=O)c12: 21.1%
CCCn1c(=O)c2[nH]c(C3CCCC3)nc2n(CCC)c1=O: 5.82%
CCOC(=O)c1cnc2c(cnn2CC)c1NN=C(C)C: 5.37%
CCOCc1cc(OC)c(-c2ccc(C[C@H](NC(=O)c3c(F)cccc3F)C(=O)O)cc2)c(OC)c1: -4.51%
O=C(Cn1ccnc1[N+](=O)[O-])NCc1ccccc1: 8.38%
c1ccc(N2CCN(CCCOc3ccc4c(c3)OCO4)CC2)cc1: 4.88%
CCC1(C2=NCCN2)Cc2ccccc2O1 (stereo not shown): 2.24%
C[C@@H]1CN(CCCn2c3ccccc3c3ccccc32)C[C@H](C)N1: 5.61%
COc1ccc(CC2NCCc3c2[nH]c2ccc(C)cc32)c(Cl)c1OC (stereo not shown): 4.46%
CCCCC1(C2CCCC2)Cc2cc(OCCCC(=O)O)c(Cl)c(Cl)c2C1=O (stereo not shown): 10.6%
O=C(O)CCC(=O)OC[C@@H](NC(=O)C(Cl)Cl)[C@H](O)c1ccc([N+](=O)[O-])cc1: -2.32%
COc1cc2c(Nc3ccc(Cl)c(Cl)c3F)ncnc2cc1OC[C@@H]1C[C@@H]2CN(C)C[C@@H]2C1: 10.3%
Cn1c(=O)cc(N2CCC[C@@H](N)C2)n(Cc2cc(F)ccc2C#N)c1=O: 5.4%
CCN(CC)C(C)CN1c2ccccc2Sc2ccccc21 (stereo not shown): 2.19%
C[C@@H](O[C@H]1OCCN(Cc2n[nH]nc2CN(C)C)[C@H]1c1ccc(F)cc1)c1cc(C(F)(F)F)cc(C(F)(F)F)c1: 2.63%
Cn1c(N2CCCCS2(=O)=O)nc(C(=O)NCc2ccc(F)cc2)c(O)c1=O: 5.39%
C=C[C@H]1CN2CC[C@H]1C[C@H]2[C@H](OC(=O)OCC)c1ccnc2ccc(OC)cc12: 0.06%
Oc1cc2c(cc1O)[C@H]1c3ccccc3CN[C@@H]1CC2 (racemic): -0.42%
COC(=O)CCSCc1ccc(-c2onc(C)c2NC(=O)OC(C)c2ccccc2Cl)cc1 (stereo not shown): 0.2%
CCCCCn1cc(C(=O)NC23CC4CC(CC(C4)C2)C3)c(=O)c2cc(-c3ccccc3)ccc21: 2.41%
Cn1ccc2cc3c(cc21)CCN3C(=O)Nc1cccnc1: 1.6%
COc1ccc(CN(C(=O)[C@@H](N)Cc2c(C)cc(C(N)=O)cc2C)[C@@H](C)c2ncc(-c3ccccc3)[nH]2)cc1C(=O)O: -2.24%
CC(C)(C)NCC(O)COc1cccc2[nH]c(=O)[nH]c12 (stereo not shown): 1.68%
c1ccc(CC2=NCCN2)cc1: 3.67%

Block 4 — cell line: HEK-293T/ACE2; concentration: concentration not given; time: 16 (unit not given); relative to: vehicle; quantity: viability
O=C(Nc1c(Cl)cncc1Cl)c1ccc(OC(F)F)c(OCC2CC2)c1: 101%
CN(C)CCCC1(c2ccc(F)cc2)OCc2cc(C#N)ccc21 (stereo not shown): 101%
C#C[C@]1(O)CC[C@H]2[C@@H]3CCC4=CC(=O)CC[C@@H]4[C@H]3C(=C)C[C@@]21CC: 100%
[H]/N=C(/N)N[C@H]1[C@H](O)[C@@H](O)[C@H](O[C@@H]2O[C@@H](C)[C@](O)(C=O)[C@H]2O[C@@H]2O[C@@H](CO)[C@H](O)[C@@H](O)[C@@H]2NC)[C@@H](N/C(N)=N\[H])[C@@H]1O: 103%
c1ccc(CC2=NCCN2)cc1: 97.8%

Block 5 — method: protein binding microarray; molecule type: double-stranded DNA, one strand shown; matrix: in vitro; concentration: not given; relative to: not given; direction: higher = stronger binding; quantity: E-score
Target: Histone acetyltransferase KAT6A, winged helix 2, GST fusion (KAT6A, Homo sapiens, UniProt Q92794, residues 85-181)
Setting: 8-mer, flanks averaged, mean of 2 arrays, mostly near background
Target sequence (chain): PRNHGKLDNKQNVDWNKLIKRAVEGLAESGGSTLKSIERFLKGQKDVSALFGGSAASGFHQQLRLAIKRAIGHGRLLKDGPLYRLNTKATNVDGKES
GACATCAA: 0.101
CGGGGACC: 0.23
CTACAAGC: -0.0915
AAAGTTCC: -0.231
CCAGCTGG: 0.155
GGTCCGCA: 0.16
AGGCGTGA: 0.0037
CGGCGTGC: 0.178

Single results of other studies
COc1ccc2nc(S)[nH]c2c1
IC50 (Replicase polyprotein 1ab, main protease (rep, Severe acute respiratory syndrome coronavirus 2, UniProt P0DTD1); enzyme activity, inhibitor, fluorescence): > 20 µM

Excerpt of the above (block 3):
OCCNCCCOc1cccc(Cl)c1Cl: 3.34%
Cn1c(N2CCCCS2(=O)=O)nc(C(=O)NCc2ccc(F)cc2)c(O)c1=O: 5.39%
CCCn1c(=O)c2[nH]c(C3CCCC3)nc2n(CCC)c1=O: 5.82%
